Measured values from different studies.
Numbered parts are unrelated; each lists some results of a single study.

Study 1 — technique: RNA Bind-n-Seq; molecule type: RNA; sample: in vitro; tested at: not given; baseline: input RNA pool; reading: higher = stronger binding
Target: RING finger protein unkempt homolog, zinc fingers 1-6, GST-SBP tag (UNK, Homo sapiens, UniProt Q9C0B0, residues 30-357)
Notes: RNA with constant flanks, human-mouse chimeric sites, ends assumed
Residues (chain): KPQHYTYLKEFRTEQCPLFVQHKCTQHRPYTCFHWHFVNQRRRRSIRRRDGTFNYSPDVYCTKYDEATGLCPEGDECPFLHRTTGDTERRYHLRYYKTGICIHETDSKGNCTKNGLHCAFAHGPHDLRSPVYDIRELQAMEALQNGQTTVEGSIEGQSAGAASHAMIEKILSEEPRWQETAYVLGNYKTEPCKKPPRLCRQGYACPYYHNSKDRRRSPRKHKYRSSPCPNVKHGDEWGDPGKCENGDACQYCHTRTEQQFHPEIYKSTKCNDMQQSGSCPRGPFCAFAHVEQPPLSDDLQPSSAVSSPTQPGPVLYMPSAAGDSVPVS
| Oligonucleotide | bound/input enrichment |
| --- | --- |
| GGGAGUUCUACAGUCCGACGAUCUCUUUAAAAAAAAAAUUACCUUUUCUGACAGUGCUUUCCCUCCCAUAGAUCCACGUUCAAGCUCAAAGAGCAAAGGCUUUGCACGGAUCUGAUGAUGCUGAUGAAGAUUUUUGAGACAGACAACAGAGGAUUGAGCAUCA | 0.513 ratio |
| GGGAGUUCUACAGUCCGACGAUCAAUAGAGGAUCCACCUCCCAAAGUGCUGGGAGUAAAGGUGUGGCCACCACACCUAACUUGAUGGAUAUAUAUUUUUUUUAAUAUGAAUCUUCCUGUUCUUCAUCCAGAGAAAGAUUUGUUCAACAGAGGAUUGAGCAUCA | 1.07 ratio |
| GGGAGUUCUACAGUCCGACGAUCACUCAGAGAUCCACCUCCCAAAGUGCUGGGAGUAAAGGUGUGGCCACCACACCUAACUUGAUGGAUAUAUAUUUUUUUUAAUAUGAAUGAACUCUUGCGUCCAGGGAGCAAGAACGGGUUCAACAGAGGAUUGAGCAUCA | 0.872 ratio |
| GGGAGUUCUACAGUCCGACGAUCCUUUUUAAGAAGAUAUGUGAUGGGAUCUUUUAUACCCCUCAAUAUUUAAAUCCUUCUGUAAUCAGCCUUUUGAAACAUAUGCUGCAGGUGGAUCCCAUGAAGAGGGCCGCAAUAAAAGAUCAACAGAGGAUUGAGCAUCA | 0.326 ratio |
| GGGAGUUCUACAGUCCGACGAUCACUCUUGACUCUUUCCAUCCUCUUCCUUUCCCUCUUGAUAUUCAAGGCCAUGAAUCCCAAAAUAACAGUCUUAGUGGGAGGCUAGCAAACAGAGGUGGAAUAAAUCCAAACUGACAACUCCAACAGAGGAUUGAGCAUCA | 0.34 ratio |
| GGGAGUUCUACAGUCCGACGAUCGCUGAAAAUGAAGAAGAGGCAGCUGAUGUCUGGUACAACUUGGGACAUGUAGCUGUGGGAAUCGGAGAUACAAACUUGGCCCACCAAUGCUUCAGGCUGGCCCUGGUCCACAACAACCACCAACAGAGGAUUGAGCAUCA | 0.124 ratio |
| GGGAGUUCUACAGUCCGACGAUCUAUAAUAAUCAUGAAAUUCGUUCUGGAAAGCACAUUGGUGUCUGCAUCUCAGUUGCCAACAAUAGGCUUUUUGUGGGCUCGAUUCCUAAGAGUAAAACCAAGGAGCAGAUUCUUGAGGAACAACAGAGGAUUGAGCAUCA | 0.849 ratio |
| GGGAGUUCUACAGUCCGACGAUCAAAGUGAUGACUAUGUUUGUCCAACGACAGGUAUUUUCUGAGAACAAAGAUGAGAUUGCGUUAGUCCUGUUUGGUACAGAUGGCACUGAUAAUGCCCUUGCUGGCAAGGACCAGUAUCAGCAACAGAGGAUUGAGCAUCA | 0.0832 ratio |

Study 2 — technique: protein binding microarray; molecule type: double-stranded DNA, one strand shown; sample: in vitro; tested at: not given; baseline: not given; reading: higher = stronger binding
Target: Histone acetyltransferase KAT6A, both winged helices, GST fusion (KAT6A, Homo sapiens, UniProt Q92794, residues 1-181)
Notes: 8-mer, flanks averaged, mean of 2 arrays, mostly near background
Target sequence (chain): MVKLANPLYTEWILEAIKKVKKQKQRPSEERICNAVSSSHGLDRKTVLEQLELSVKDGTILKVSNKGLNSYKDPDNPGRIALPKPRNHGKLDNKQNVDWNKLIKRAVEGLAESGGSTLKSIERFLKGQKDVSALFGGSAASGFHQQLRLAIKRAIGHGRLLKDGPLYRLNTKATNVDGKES
| Oligonucleotide | E-score |
| --- | --- |
| ATGCTGAC | -0.114 |
| CACACTCC | -0.0646 |
| TGAAACCA | -0.12 |
| CGTCTTTA | 0.0562 |
| ATATTGAC | 0.00642 |
| AAGAATAC | 0.0163 |
| AAAAATGC | 0.0312 |
| CTGGCGTC | 0.0475 |

Study 3 — technique: protein-binding microarray; molecule type: double-stranded DNA, one strand shown; sample: in vitro; tested at: 250 nM; notes: 60-bp whole probe; together with: salmon DNA 0.4 mg/ml; baseline: random background probes; reading: higher = stronger binding; all sequences stand within: GCCTAGCAC … GTCTTGATTCGCTTGACGCTGCTG
Target: Interferon regulatory factor 5, full length, phosphomimetic (IRF5, Homo sapiens, UniProt Q13568-2, residues 1-514, K96S/S451D/S453D/S456D/S462D)
| Oligonucleotide | log fluorescence |
| --- | --- |
| TGAGGACTGGACTTTCGGTTAGTGCTA | 9.3 z-score |
| GACGAACTGGGGTTTCGAGGCGTGCTA | 1.29 z-score |
| TCAATTCTCGGGACTCACACTGTGCTA | 0.384 z-score |
| TTAGGTTTCCTTTCCCTCTAGTGCTAG | 1.79 z-score |
| TTTGGACTGCTTTTCCTTTAGTGCTAG | 0.252 z-score |

Other studies, line by line
| Substance | target | test | system | setting | scale | endpoint | result |
| --- | --- | --- | --- | --- | --- | --- | --- |
| PhoQ, residues 284 288 289 292 302 303 SNSSNI | PhoP, residues 12 14 15 18 19 GHCSL (Escherichia coli, UniProt P23836) | Sort-seq, item: YFP reporter | E. coli | PhoQ-PhoP variant library, together with: 10 µM Mg2+ | baseline: high Mg2+ state, higher = stronger signaling | fold induction | 6.95 |

A few entries again (study 3):
| Oligonucleotide | log fluorescence |
| --- | --- |
| GACGAACTGGGGTTTCGAGGCGTGCTA | 1.29 z-score |
| TCAATTCTCGGGACTCACACTGTGCTA | 0.384 z-score |
| TTAGGTTTCCTTTCCCTCTAGTGCTAG | 1.79 z-score |
